Results collected from several papers.
Protocols differ between the studies behind these lines. ± gives the spread as reported.
PLEC: PLEC (Homo sapiens, UniProt Q15149)
Histone H4: Histone H4 (Homo sapiens, UniProt P62805)
B1: human SMC3; sequence looked up; chain MYIKQVIIQGFRSYRDQTIVDPFSSKHNVIVGRNGSGKSNFFYAIQFVLSDEFSHLRPEQRLALLHEGTGPRVISAFVEIIFDNSDNRLPIDKEEVSLRRVIGAKKDQYFLDKKMVTKNDVMNLLESAGFSRSNPYYIVKQGKINQMATAPDSQRLKLLREVAGTRVYDERKEESISLMKETEGKREKINELLKYIEERLHTLEEEKEELAQYQKWDKMRRALEYTIYNQELNETRAKLDELSAKRETSGEKSRQLRDAQQDARDKMEDIERQVRELKTKISAMKEEKEQLSAERQEQIKQRTKLELKAKDLQDELAGNSEQRKRLLKERQKLLEKIEEKQKELAETEPKFNSVKEKEERGIARLAQATQERTDLYAKQGRGSQFTSKEERDKWIKKELKSLDQAINDKKRQIAAIHKDLEDTEANKEKNLEQYNKLDQDLNEVKARVEELDRKYYEVKNKKDELQSERNYLWREENAEQQALAAKREDLEKKQQLLRAATGKAILNGIDSINKVLDHFRRKGINQHVQNGYHGIVMNNFECEPAFYTCVEVTAGNRLFYHIVDSDEVSTKILMEFNKMNLPGEVTFLPLNKLDVRDTAYPETNDAIPMISKLRYNPRFDKAFKHVFGKTLICRSMEVSTQLARAFTMDCITLEGDQVSHRGALTGGYYDTRKSRLELQKDVRKAEEELGELEAKLNENLRRNIERINNEIDQLMNQMQQIETQQRKFKASRDSILSEMKMLKEKRQQSEKTFMPKQRSLQSLEASLHAMESTRESLKAELGTDLLSQLSLEDQKRVDALNDEIRQLQQENRQLLNERIKLEGIITRVETYLNENLRKRLDQVEQELNELRETEGGTVLTATTSELEAINKRVKDTMARSEDLDNSIDKTEAGIKELQKSMERWKNMEKEHMDAINHDTKELEKMTNRQGMLLKKKEECMKKIRELGSLPQEAFEKYQTLSLKQLFRKLEQCNTELKKYSHVNKKALDQFVNFSEQKEKLIKRQEELDRGYKSIMELMNVLELRKYEAIQLTFKQVSKNFSEVFQKLVPGGKATLVMKKGDVEGSQSQDEGEGSGESERGSGSQSSVPSVDQFTGVGIRVSFTGKQGEMREMQQLSGGQKSLVALALIFAIQKCDPAPFYLFDEIDQALDAQHRKAVSDMIMELAVHAQFITTTFRPELLESADKFYGVKFRNKVSHIDVITAEMAKDFVEDDTTHG
Chain of UniProt P17480 (whole entry, looked up): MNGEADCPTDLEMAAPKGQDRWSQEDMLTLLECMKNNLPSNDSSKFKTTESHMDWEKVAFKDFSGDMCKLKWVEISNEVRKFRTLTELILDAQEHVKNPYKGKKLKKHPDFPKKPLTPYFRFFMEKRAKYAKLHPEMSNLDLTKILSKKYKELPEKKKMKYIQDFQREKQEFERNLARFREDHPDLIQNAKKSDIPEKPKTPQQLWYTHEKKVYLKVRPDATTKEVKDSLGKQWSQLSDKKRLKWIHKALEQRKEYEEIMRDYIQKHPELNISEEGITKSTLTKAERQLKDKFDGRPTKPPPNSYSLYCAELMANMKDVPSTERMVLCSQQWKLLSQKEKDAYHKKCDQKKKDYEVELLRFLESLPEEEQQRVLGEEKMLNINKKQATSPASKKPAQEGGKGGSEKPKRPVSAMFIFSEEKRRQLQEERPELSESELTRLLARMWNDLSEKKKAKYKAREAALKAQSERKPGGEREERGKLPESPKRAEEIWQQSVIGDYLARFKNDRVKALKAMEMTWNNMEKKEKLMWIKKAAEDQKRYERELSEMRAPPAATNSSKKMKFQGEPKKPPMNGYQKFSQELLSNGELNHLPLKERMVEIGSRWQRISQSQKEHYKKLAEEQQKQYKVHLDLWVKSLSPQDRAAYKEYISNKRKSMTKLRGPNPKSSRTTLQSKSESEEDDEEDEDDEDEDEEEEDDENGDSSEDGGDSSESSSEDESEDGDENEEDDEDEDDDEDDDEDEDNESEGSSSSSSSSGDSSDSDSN
Chain of UniProt P05141 (whole entry, looked up): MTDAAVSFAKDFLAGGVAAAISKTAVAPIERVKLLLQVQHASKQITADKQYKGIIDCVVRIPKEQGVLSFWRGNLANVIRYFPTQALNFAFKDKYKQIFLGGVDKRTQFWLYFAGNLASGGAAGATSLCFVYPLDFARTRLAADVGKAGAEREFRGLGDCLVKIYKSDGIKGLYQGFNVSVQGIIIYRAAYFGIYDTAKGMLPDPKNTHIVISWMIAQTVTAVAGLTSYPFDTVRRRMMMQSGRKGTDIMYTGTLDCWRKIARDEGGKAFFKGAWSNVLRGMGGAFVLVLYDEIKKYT
Chain of UniProt Q9NY12 (whole entry, looked up): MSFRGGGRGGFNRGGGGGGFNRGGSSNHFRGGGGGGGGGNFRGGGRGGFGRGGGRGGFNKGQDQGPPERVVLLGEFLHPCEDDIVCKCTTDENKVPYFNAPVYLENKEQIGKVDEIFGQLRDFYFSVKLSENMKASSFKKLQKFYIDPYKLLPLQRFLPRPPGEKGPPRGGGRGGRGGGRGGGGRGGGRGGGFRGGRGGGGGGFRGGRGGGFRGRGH
Chain of UniProt P12236 (whole entry, looked up): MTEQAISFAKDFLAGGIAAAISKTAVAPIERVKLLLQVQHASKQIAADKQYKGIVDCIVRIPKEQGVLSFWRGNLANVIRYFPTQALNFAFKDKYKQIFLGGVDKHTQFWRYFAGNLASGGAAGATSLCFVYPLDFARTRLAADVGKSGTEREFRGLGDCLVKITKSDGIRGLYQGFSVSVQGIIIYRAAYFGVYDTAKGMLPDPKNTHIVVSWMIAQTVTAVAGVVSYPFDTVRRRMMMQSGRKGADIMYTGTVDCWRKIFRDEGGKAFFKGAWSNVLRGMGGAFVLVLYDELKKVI
Chain of UniProt P05787 (whole entry, looked up): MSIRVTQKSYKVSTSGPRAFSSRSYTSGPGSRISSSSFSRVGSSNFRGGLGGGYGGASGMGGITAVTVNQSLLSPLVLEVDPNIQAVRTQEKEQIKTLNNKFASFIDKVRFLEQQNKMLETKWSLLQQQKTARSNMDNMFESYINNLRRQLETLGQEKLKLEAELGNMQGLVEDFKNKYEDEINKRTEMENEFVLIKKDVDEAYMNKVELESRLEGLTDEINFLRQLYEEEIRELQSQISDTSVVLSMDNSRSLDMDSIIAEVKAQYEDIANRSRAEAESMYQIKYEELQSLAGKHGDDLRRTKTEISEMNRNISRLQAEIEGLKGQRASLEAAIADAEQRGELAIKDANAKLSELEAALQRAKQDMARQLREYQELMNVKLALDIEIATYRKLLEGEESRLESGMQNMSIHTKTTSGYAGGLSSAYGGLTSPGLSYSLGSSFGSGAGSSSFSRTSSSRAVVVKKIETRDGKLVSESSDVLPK
Chain of UniProt P31946 (whole entry, looked up): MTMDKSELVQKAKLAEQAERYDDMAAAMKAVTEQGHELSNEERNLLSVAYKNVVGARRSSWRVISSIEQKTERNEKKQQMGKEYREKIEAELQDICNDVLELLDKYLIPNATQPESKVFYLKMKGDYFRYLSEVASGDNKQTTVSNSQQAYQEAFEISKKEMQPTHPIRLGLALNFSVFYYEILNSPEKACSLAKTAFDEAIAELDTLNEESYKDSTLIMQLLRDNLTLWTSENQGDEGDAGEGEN
Chain of UniProt P62937 (whole entry, looked up): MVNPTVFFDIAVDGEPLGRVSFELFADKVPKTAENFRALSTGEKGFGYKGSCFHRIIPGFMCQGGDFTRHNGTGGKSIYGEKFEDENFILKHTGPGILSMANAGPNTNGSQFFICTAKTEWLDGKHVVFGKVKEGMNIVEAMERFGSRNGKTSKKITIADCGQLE
Chain of UniProt P40227 (whole entry, looked up): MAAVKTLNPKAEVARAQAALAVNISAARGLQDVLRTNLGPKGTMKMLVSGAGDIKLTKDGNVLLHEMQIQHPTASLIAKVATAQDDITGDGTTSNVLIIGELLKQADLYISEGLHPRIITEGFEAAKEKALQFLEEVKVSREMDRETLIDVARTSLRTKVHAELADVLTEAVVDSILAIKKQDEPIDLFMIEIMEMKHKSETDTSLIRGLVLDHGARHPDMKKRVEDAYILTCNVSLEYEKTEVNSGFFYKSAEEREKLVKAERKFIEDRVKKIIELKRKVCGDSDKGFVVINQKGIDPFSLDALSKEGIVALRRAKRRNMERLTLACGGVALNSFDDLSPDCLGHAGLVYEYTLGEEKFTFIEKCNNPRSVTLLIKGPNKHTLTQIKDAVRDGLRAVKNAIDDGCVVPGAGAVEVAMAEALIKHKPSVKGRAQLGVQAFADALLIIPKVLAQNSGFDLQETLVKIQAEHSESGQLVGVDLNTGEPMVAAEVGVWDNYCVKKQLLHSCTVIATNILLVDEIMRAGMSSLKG
Chain of UniProt P62258 (whole entry, looked up): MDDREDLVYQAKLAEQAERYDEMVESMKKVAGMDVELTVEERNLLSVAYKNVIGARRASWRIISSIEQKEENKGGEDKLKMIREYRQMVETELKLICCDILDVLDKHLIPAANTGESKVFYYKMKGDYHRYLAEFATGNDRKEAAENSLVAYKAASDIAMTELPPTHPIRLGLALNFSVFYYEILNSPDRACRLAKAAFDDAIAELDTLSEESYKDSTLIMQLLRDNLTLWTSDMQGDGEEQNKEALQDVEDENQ
Chain of UniProt O60573 (whole entry, unmodified, looked up): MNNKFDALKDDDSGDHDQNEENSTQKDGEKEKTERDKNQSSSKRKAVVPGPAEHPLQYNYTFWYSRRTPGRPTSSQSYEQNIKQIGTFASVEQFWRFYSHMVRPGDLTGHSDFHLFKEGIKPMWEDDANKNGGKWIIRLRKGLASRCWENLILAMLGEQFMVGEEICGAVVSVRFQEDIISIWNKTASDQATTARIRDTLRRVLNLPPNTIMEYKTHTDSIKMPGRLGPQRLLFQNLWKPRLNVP
Chain of UniProt P51153 (whole entry, looked up): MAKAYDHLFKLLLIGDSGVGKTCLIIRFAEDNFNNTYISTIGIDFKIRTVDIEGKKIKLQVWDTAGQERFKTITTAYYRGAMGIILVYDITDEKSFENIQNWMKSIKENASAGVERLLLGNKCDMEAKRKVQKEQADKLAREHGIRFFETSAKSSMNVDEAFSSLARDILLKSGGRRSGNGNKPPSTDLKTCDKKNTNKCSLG
Chain of UniProt O60832 (whole entry, looked up): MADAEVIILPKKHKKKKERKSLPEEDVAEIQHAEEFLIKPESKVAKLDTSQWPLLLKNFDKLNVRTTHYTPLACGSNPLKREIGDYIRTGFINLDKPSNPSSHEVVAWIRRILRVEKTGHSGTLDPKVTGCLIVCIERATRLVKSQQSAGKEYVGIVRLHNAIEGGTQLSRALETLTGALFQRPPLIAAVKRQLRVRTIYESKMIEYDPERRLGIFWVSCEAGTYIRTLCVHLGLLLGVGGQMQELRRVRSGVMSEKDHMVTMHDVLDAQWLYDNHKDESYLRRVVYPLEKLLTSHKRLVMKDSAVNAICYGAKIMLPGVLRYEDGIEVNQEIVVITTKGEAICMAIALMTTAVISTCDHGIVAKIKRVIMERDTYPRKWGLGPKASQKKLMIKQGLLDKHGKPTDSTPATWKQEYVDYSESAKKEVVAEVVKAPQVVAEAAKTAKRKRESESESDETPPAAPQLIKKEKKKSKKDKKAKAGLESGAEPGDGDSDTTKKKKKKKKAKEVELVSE
Chain of UniProt Q92526 (whole entry, looked up): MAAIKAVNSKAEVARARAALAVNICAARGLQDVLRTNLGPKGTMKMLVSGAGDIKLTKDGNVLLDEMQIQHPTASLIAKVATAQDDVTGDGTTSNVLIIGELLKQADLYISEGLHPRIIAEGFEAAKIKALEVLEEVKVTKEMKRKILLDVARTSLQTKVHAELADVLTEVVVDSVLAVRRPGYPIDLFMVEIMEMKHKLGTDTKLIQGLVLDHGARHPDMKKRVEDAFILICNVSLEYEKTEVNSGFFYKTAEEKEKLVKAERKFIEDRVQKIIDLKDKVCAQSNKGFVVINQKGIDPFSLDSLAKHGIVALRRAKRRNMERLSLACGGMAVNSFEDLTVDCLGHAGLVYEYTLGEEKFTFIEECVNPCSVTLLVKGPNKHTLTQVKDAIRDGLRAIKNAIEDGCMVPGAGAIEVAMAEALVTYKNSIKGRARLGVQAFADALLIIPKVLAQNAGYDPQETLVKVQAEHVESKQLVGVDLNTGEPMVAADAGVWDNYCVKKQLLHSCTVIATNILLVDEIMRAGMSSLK
Chain of UniProt P09382 (whole entry, looked up): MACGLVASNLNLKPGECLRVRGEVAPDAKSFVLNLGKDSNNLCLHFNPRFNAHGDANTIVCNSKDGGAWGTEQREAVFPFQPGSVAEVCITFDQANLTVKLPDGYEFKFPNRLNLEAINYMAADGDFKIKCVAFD

| Molecule | target or system | assay | system | setting | how to read | quantity | value |
| --- | --- | --- | --- | --- | --- | --- | --- |
| RSL1D1 (Homo sapiens, UniProt O76021) | PLEC | cross-linking MS | cells | together with: iqPIR |  | cross-linked residues | K395 to K2189 |
| FGG (Homo sapiens, UniProt P02679) | RANBP3L (Homo sapiens, UniProt Q86VV4) | cross-linking MS |  | together with: DSSO |  | cross-linked residues | K231 to K311 |
| UBTF (Homo sapiens, UniProt P17480) | PLEC | cross-linking MS | cells | together with: iqPIR |  | cross-linked residues | K635 to K3183 |
| CTTN (Homo sapiens, UniProt Q14247) | HSP90AB4P (Homo sapiens, UniProt Q58FF6) | cross-linking MS |  | together with: DSSO or DMTMM |  | cross-linked residues | D177 to K194 |
| ALB (Homo sapiens, UniProt P02768) | CCDC166 (Homo sapiens, UniProt P0CW27) | cross-linking MS |  | together with: DSSO |  | cross-linked residues | K426 to K89 |
| PSMD12 (Homo sapiens, UniProt O00232) | SPTBN5 (Homo sapiens, UniProt Q9NRC6) | cross-linking MS |  | together with: DSSO or DMTMM |  | cross-linked residues | M1 to E3537 |
| THOC2 (Homo sapiens, UniProt Q8NI27) | SPIN1 (Homo sapiens, UniProt Q9Y657) | cross-linking MS |  | together with: DSSO |  | cross-linked residues | K405 to K104 |
| KLHL31 (Homo sapiens, UniProt Q9H511) | KIAA1210 (Homo sapiens, UniProt Q9ULL0) | cross-linking MS |  | together with: DSSO |  | cross-linked residues | K10 to K1667 |
| HSPA9 (Homo sapiens, UniProt P38646) | PSAT1 (Homo sapiens, UniProt Q9Y617) | cross-linking MS | cells | together with: BDP-NHP |  | cross-linked residues | K314 to K127 |
| TCP1 (Homo sapiens, UniProt P17987) | CCT4 (Homo sapiens, UniProt P50991) | cross-linking MS |  | together with: DSSO |  | cross-linked residues | K126 to K55 |
| KYKLADYRYGREEMLALYVK (GIGYF1(33-52) peptide; sequence looked up) | EIF4E2 (Homo sapiens, UniProt O60573) | ITC | peptide | pH 7.0, 20 °C, GB1-stabilized peptide titration |  | ΔH | -23 ± 3 kcal/mol |
| B1 (human SMC3) | PP6C (human) | co-immunoprecipitation, IP-MS | CYB5R4 knockout cells | concentration not given | baseline: CYB5R4 knockout over parental | log2 fold change | -0.76 |
| BLTP3B (Homo sapiens, UniProt A0JNW5) | Histone H4 | cross-linking MS |  | together with: DSSO |  | cross-linked residues | K408 to K78 |
| CCT6A (Homo sapiens, UniProt P40227) | CCT6B (Homo sapiens, UniProt Q92526) | cross-linking MS | cells | together with: iqPIR |  | cross-linked residues | K251 to K295 |
| SLC4A1 (Homo sapiens, UniProt P02730) | RNF123 (Homo sapiens, UniProt Q5XPI4) | cross-linking MS |  | together with: DSSO or DMTMM |  | cross-linked residues | D45 to K467 |
| STAT5A (Homo sapiens, UniProt P42229) | Histone H4 | cross-linking MS |  | together with: DSSO |  | cross-linked residues | K644 to K32 |
| LGALS1 (Homo sapiens, UniProt P09382) | RAB13 (Homo sapiens, UniProt P51153) | cross-linking MS | cells | together with: iqPIR |  | cross-linked residues | K64 to K107 |
| MAGEC1 (Homo sapiens, UniProt O60732) | FGB (Homo sapiens, UniProt P02675) | cross-linking MS |  | together with: DSSO |  | cross-linked residues | K926 to K374 |

| Molecule | target or system | assay | system | setting | how to read | quantity | value |
| --- | --- | --- | --- | --- | --- | --- | --- |
| human eRF3a | PP6C (human) | co-immunoprecipitation, IP-MS | CYB5R4 knockout cells | concentration not given | baseline: CYB5R4 knockout over parental | log2 fold change | 0.09 |
| HSP90AB1 (Homo sapiens, UniProt P08238) | PPIA (Homo sapiens, UniProt P62937) | cross-linking MS | cells | together with: iqPIR |  | cross-linked residues | K435 to K76 |
| SLC25A5 (Homo sapiens, UniProt P05141) | SLC25A6 (Homo sapiens, UniProt P12236) | cross-linking MS | purified complex | together with: DSSO |  | cross-linked residues | K147 to K147 |
| EEF1E1 (Homo sapiens, UniProt O43324) | DARS1 (Homo sapiens, UniProt P14868) | cross-linking MS | cells | together with: BDP-NHP |  | cross-linked residues | K138 to K374 |
| DKC1 (Homo sapiens, UniProt O60832) | GAR1 (Homo sapiens, UniProt Q9NY12) | cross-linking MS | cells | together with: iqPIR |  | cross-linked residues | K191 to K112 |
| ERH (Homo sapiens, UniProt P84090) | THRAP3 (Homo sapiens, UniProt Q9Y2W1) | cross-linking MS | cells | together with: BDP-NHP |  | cross-linked residues | K90 to K519 |
| colistin | Enterobacter cloacae | broth microdilution | clinical isolate RKI-No_113/16 |  |  | MIC | ≤ 0.5 µg/mL |
| S100A10 (Homo sapiens, UniProt P60903) | GTF3C1 (Homo sapiens, UniProt Q12789) | cross-linking MS | cells | together with: BDP-NHP |  | cross-linked residues | K37 to K985 |
| FGB (Homo sapiens, UniProt P02675) | PCSK5 (Homo sapiens, UniProt Q92824) | cross-linking MS |  | together with: DSSO |  | cross-linked residues | K77 to K587 |
| TCP1 (Homo sapiens, UniProt P17987) | CCT2 (Homo sapiens, UniProt P78371) | cross-linking MS | cells | together with: BDP-NHP |  | cross-linked residues | K126 to K46 |
| KRT8 (Homo sapiens, UniProt P05787) | PLEC | cross-linking MS | cells | together with: iqPIR |  | cross-linked residues | K122 to K3849 |
| HNRNPK (Homo sapiens, UniProt P61978) | CFAP251 (Homo sapiens, UniProt Q8TBY9) | cross-linking MS | cells | together with: BDP-NHP |  | cross-linked residues | K52 to K1064 |
| SERPINB1 (Homo sapiens, UniProt P30740) | SNCA (Homo sapiens, UniProt P37840) | cross-linking MS |  | together with: DSSO or DMTMM |  | cross-linked residues | D312 to K10 |
| NUP93 (Homo sapiens, UniProt Q8N1F7) | NUP205 (Homo sapiens, UniProt Q92621) | cross-linking MS | cells | together with: BDP-NHP |  | cross-linked residues | K106 to K1548 |
| YWHAB (Homo sapiens, UniProt P31946) | YWHAE (Homo sapiens, UniProt P62258) | cross-linking MS | cells | together with: iqPIR |  | cross-linked residues | K70 to K50 |
| CLTC (Homo sapiens, UniProt Q00610) | PLEC | cross-linking MS | cells | together with: BDP-NHP |  | cross-linked residues | K245 to K1774 |
| FGA (Homo sapiens, UniProt P02671) | MAP4 (Homo sapiens, UniProt P27816) | cross-linking MS |  | together with: DSSO |  | cross-linked residues | K243 to K852 |
